Measurements collected from several papers.
A part holds a random share of what one study measured.

Study 1 — technique: RNA Bind-n-Seq; form: RNA; sample: in vitro; tested at: 365 nM; relative to: no-protein control; reading: higher = stronger binding
Target: RNA binding protein fox-1 homolog 2, RRM domain, GST-SBP tag (RBFOX2, Homo sapiens, UniProt O43251-10, residues 100-194)
Notes: natural RNA segment, single round, ends assumed
Construct (chain): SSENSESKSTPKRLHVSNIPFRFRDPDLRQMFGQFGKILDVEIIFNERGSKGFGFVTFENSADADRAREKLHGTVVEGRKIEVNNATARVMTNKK
`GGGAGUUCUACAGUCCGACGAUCUAGGACCUGGCGCACACAAGAGCAGGAGAACAGGGCUGGAGCAGCUGUUGACGGGACCCCUGCUGUCUUAAGCUUUUCCCCAUAGUGCCUAUAGUUUCCAAAGAAACUUAUGGAAUUCUCGGGUGCCAA` — result for “RBNS enrichment (R)”: 0.593.
`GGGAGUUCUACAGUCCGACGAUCACUAUGUGUUAUACACUGCAUACACAUACUUCCUUUACCCAGAGAAAAGAAAUAAAAUUGAACCAAAGGAUUUUCCCAGAAAAAAACAAGAAAGCAGUUUUAGAAGGCCAUGGAAUUCUCGGGUGCCAA` — result for “RBNS enrichment (R)”: 0.749.
For `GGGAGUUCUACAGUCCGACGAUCCUAAGUCUUGAACCAACUGACUCCCGAAUGCCAUUCCCGGAAGGAACCAAGUGGUGACUUUGUCCUCUGCCUGCUCAGUCACAAAGUAUAUCACUAGGCCAUAAAAAUGGUGGAAUUCUCGGGUGCCAA`, “RBNS enrichment (R)” read 0.259.
For `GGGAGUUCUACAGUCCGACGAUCGCUUCGUGAAUGUGUGUGGACUCUAGUUUCCGCAAAACAACGCAACACAAAACCAAGCAAGCAAAACACAAACACGAGUACAAACCUUGACCUGAUGAGGGACAGAGCUUUGGAAUUCUCGGGUGCCAA`, “RBNS enrichment (R)” read 1.43.
Under “RBNS enrichment (R)”, `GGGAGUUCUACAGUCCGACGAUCACUCUACACACUUCCUAGUCACGCAGGAUCCCUGUAGCCAAAACAGUAUAUGUUCCAGCUGCAGAGAGCAGACUGCUCUCAGCUUGCCUAGCACCUUAGGGGAGGGAAGAUGGAAUUCUCGGGUGCCAA` is recorded as 0.418.
`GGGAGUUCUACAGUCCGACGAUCCCAGUGUAGGAAGCCUCAUGAGAACAGAACCAUUAACAGCCAGAGUGCCAAUGGUGGGAUCAGCAGGAAGACUGAUGUUGGAGACAAUCGGGUGCGGAUUGGUGCUAAUUUGGAAUUCUCGGGUGCCAA`: “RBNS enrichment (R)” 0.816.
`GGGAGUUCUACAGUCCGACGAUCCUCCCGCCUACCCCGUCGGCAUUUUCUUCUUCCACCAGCUUUUACUGAACUUUUUGGCACUGCUUUGGAUUGGGGUCAAUUGCAGUCCACGUAACUGGCUGCAGAGAAAUUGGAAUUCUCGGGUGCCAA` — result for “RBNS enrichment (R)”: 0.552.
For `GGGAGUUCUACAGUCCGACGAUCUACAGCACAAUGCCAGACAGUUAUGCCGCGUGUAUCCCAGUGGUCUGAGGACAGAUUCAUCCAACUUUAACCCCCAGGAACACUGGAAUGUAGGCUGCCAGAUGGGGGCUUGGAAUUCUCGGGUGCCAA`, “RBNS enrichment (R)” read 0.615.

Study 2 — technique: EMSA with sequencing; form: double-stranded DNA, one strand shown; sample: in vitro; tested at: 10 and 20 nM; relative to: negative control set to 0; reading: higher = stronger binding
Target: Hepatocyte nuclear factor 3-alpha (Foxa1, Mus musculus, UniProt P35582, residues 1-468, full length assumed)
Notes: whole designed probe, mean of two concentrations, ends assumed
Target sequence (chain): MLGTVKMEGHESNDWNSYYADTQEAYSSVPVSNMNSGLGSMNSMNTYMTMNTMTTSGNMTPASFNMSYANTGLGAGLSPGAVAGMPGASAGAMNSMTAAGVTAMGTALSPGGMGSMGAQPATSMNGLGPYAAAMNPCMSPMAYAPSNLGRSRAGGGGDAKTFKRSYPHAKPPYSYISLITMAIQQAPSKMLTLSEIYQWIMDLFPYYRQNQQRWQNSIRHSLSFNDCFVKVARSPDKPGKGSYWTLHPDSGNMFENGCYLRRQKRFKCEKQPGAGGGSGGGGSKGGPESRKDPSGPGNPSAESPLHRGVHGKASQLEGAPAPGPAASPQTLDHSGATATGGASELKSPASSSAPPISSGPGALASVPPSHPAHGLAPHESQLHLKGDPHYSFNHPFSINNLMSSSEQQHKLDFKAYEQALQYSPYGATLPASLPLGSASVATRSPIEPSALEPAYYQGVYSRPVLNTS
`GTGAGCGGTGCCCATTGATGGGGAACATCTTCCCCCTCTTCCTTGCCCCACCAGCTCACCTTCCCGGGTTATTTGCAGATAGGAAAATAAATAAAGCCGGCATTCGTTAACCCTCTTCTGGCGCAAACTGCTGTTTGCTCTGCATCTAACATGGTCCTTACGCGAGGCGTGGCTCCGGGAGAGCAAAGCACCGTGTCAGGCGCATGATCCGGGGTGGCCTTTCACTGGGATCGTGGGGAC`: “normalised bound fraction” 0.355 ratio.
`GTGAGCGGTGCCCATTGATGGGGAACGTGTGTGCGCGCGCGTGTGTGTGTGTTTTCTTAAGCCGGGCTATTCAAACCCTGCTGCAATTCAATGATTCATCTCCGGTAAAGGGGCACGTTTATTTGCATTAGATTGCAAACGGCGCGGTTCGCGCACTTTGCAGCCGGCCCGGTGGAGCAGCCAGTGCCGGATTTCTCCCTTTTTTTGCAGATCTGCAGATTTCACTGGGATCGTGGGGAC`: “normalised bound fraction” 0.421 ratio.
`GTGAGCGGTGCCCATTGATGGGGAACTTCCTTTATCCCAACATGTTTATACAGACAAAACCAGGTTAAAATCGACACAAGGTCAACTTGAAATGGGGAAAGAGGAAGGTGACGTCACAAAATAAACATGAAGTCTTGTGTACAAGCATCTGCAGAAGAGTTCAGCCTCACCACTTGGGTAATGCTGTTGGAATGTGGTCTGGGTTCACTGTATTTGAATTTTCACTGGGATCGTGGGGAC` — result for “normalised bound fraction”: 0.34 ratio.
Under “normalised bound fraction”, `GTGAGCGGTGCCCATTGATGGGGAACTTATGTATACAGAATGACTGACTACAACTATGGCAAAAACAAACAACAACAACAACAACAACAACAACAACAAACCCTCAATAGAGGAAAAAGTAATCTAGAAACAGATCAAATTATTAACACAATGACATTTGAATGGTGACAAAATTGGTGATTTTAGTTTTTCTTTCCTTTTAAAATGTTTTTAAAGCACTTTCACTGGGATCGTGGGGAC` is recorded as 0.326 ratio.
`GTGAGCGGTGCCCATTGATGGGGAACAACAAACAAATAAAACAACTAGTATGGAAGCTAGAATAATGTGATGCACCATTACACCAAATATTCAGTCTTAACATGGTTTTTAATATTATGTAATCTTGGAAGGTATTGCCATTGTTCATATGATACAGAATCAATGGCACTCACAATCATCTGAATATATTGAAAAATGGCACCTTCAAATAAAAATTGTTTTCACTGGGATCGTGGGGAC`: “normalised bound fraction” 0.264 ratio.

Study 3 — technique: protein binding microarray; form: double-stranded DNA, one strand shown; sample: in vitro; tested at: not given; relative to: not given; reading: higher = stronger binding
Target: Histone acetyltransferase KAT6A, winged helix 1, GST fusion (KAT6A, Homo sapiens, UniProt Q92794, residues 1-85)
Notes: 8-mer, flanks averaged, mean of 2 arrays, mostly near background
Target sequence (chain): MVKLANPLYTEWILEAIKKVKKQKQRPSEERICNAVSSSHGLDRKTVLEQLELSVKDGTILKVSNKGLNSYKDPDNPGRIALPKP
`ACGATCAC` gave an E-score of -0.0639.
`GCCCACCC` gave an E-score of 0.149.
`ACAGACGC` has an E-score of 0.13.
With `ACGTCACT` the E-score was -0.122.
For `GAGCGGCA`, the E-score was 0.405.
`AGGTAAGC` has an E-score of -0.0152.
The E-score of `ACGGACCG` is reported as 0.295.
`AGTTCTGG` has an E-score of -0.209.
With `AGTTGAAT` the E-score was -0.136.
With `CGCACCAG` the E-score was 0.174.
With `ACACAATG` the E-score was -0.319.
With `AGGTCTAG` the E-score was -0.123.
For `TCAGCCAA`, the E-score was -0.185.
For `AGAATTGG`, the E-score was -0.271.
The E-score of `CTCACGAA` is reported as -0.0545.
The E-score of `GGACTCCC` is reported as 0.00901.
`GTCAGCTA` gave an E-score of -0.0734.
For `AACGTGCA`, the E-score was -0.174.
`AGCGCTCG` has an E-score of 0.348.
`ACTACTGC` gave an E-score of 0.112.
With `CGAGTTCA` the E-score was -0.138.
`AATGCCAA` gave an E-score of -0.163.
For `ACGAGCTC`, the E-score was -0.255.
`AGAGACTG` has an E-score of -0.103.
The E-score of `GACAGCTA` is reported as -0.193.

Study 4 — technique: protein-binding microarray; form: double-stranded DNA, one strand shown; sample: in vitro; tested at: 250 nM; notes: 60-bp whole probe; with: salmon DNA 0.4 mg/ml; relative to: random background probes; reading: higher = stronger binding; all sequences stand within: GCCTAGCAC … GTCTTGATTCGCTTGACGCTGCTG
Target: Interferon regulatory factor 5, full length, phosphomimetic (IRF5, Homo sapiens, UniProt Q13568-2, residues 1-514, K96S/S451D/S453D/S456D/S462D)
`GTTTTTTTCTACTTCTCTTTGTGCTAG` has a log fluorescence of 1.82 z-score.
With `GACGGACTGGGTTTCGGGAGGTGCTAG` the log fluorescence was 2.03 z-score.
`TTAGAACCGAGTCTCGATTAGTGCTAG` has a log fluorescence of 0.646 z-score.
`TACGGTTTCGACTATCGGGACGTGCTA` has a log fluorescence of 7.26 z-score.
`AAACAAATAAGCCTTACTTGGTGCTAG` has a log fluorescence of 0.149 z-score.
The log fluorescence of `ATAGGACTGGACTATCGGTTAGTGCTA` is reported as 6.13 z-score.
For `TTAGGGATCGGTTTCGGTTAGTGCTAG`, the log fluorescence was 8.8 z-score.
For `GACGAACTGGGGACTTGAGACGTGCTA`, the log fluorescence was -0.31 z-score.
For `TTAGGGTTCCTACTGCTTTAGTGCTAG`, the log fluorescence was -0.238 z-score.
`GACGATCTGAGACTGGAGACGTGCTAG` gave a log fluorescence of -0.312 z-score.
For `TTAGGACCGGGGACTGGGTTAGTGCTA`, the log fluorescence was -0.876 z-score.
The log fluorescence of `TTAGATATCAGTTTCGATTAGTGCTAG` is reported as 10 z-score.

A few entries again (study 3):
The E-score of `ACGGACCG` is reported as 0.295.
`ACGATCAC` gave an E-score of -0.0639.
`ACAGACGC` has an E-score of 0.13.
With `ACGTCACT` the E-score was -0.122.
The E-score of `GACAGCTA` is reported as -0.193.
